Experimental data pooled from the literature.
Target: Cannabinoid receptor 1 (CNR1, Homo sapiens, UniProt P21554)
Sequence of UniProt P21554 (whole entry, looked up): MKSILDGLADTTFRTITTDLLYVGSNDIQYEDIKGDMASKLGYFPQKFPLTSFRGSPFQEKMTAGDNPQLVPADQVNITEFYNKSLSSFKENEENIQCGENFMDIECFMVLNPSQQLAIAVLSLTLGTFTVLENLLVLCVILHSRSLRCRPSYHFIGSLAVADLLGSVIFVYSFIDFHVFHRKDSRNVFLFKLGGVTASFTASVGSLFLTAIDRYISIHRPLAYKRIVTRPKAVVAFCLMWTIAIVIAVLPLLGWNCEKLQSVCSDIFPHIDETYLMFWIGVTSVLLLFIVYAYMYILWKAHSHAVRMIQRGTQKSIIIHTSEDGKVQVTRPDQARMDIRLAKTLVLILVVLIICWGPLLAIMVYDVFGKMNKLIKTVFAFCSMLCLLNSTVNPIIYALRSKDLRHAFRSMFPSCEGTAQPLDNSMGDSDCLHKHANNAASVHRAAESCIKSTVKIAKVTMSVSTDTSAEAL

| Compound | test | test system | setting | endpoint | value |
| --- | --- | --- | --- | --- | --- |
| C[Si](C)(C)C[C@@H](CN)CC(=O)O | ligand displacement, radioligand | – | 75 µM | inhibition | 9% |
| Cn1ccc2cc(-n3c(=O)[nH]c4sc5c(c4c3=O)CCCC5)ccc21 | cell-free assay, radioligand | – | 10 µM | inhibition | 12% |
| COc1ccc(C#CC2=C[C@H]3C[C@@]4(OC(=O)C=C24)[C@H]2CC[C@H](C(OC)OC)N32)cc1 | ligand displacement, radioligand | – | 10 µM | inhibition | 13% |
| Cc1[nH]nc2c1N=C(c1ccccc1Cl)c1cnc(N3CCOCC3)cc1N2 | cell-free assay | – | 10 µM | inhibition | 41% |
| COc1ncc2nc(C)n(Cc3ncc(S(N)(=O)=O)cc3F)c2c1-c1ccccc1 | agonist, cell-based | – | 10 µM | activation | 1.96% |
| CCOC(=O)C(CC)(CCCSCCOCCOCCOCCN)NC(=O)c1ccc(C2CC2)c(Cc2ccc(F)cc2)n1 (stereo not drawn) | cAMP, agonist | – | – | Emax | 72% |
| CNC(=O)C[C@H](Cc1ccc(C#N)cc1)NC(=O)c1cc(-c2ccc(CN[C@H](C)c3ccc(C)cc3)o2)ccc1Cl | agonist response, antagonist | human cells | 10 µM, CB1 antagonist | inhibition | 2% |
| CO[C@@H](C)c1c(NC(=O)Nc2cnc(-n3nccn3)c(C(F)(F)F)c2)cnc2sc(C)nc12 | ligand displacement, radioligand | – | 10 µM | inhibition | -9.5% |
| CCOC(=O)C(CC)(CCCSCCCCCCNc1ccc([N+](=O)[O-])c2nonc12)NC(=O)c1ccc(C2CC2)c(Cc2ccc(F)cc2)n1 (stereo not drawn) | cAMP, agonist | – | – | Emax | 122% |
| C[Si]1(C[C@H](CN)CC(=O)O)CCCC1 | ligand displacement, radioligand | – | 70 µM | inhibition | -6% |
| CCOC(=O)[C@](CC)(CCCSCCOCCOCCN)NC(=O)c1ccc(C2CC2)c(Cc2ccc(F)cc2)n1 | cAMP, agonist | – | – | Emax | 84% |
| O=C1c2sc(-c3ccc(N4CCC(F)C4)nc3F)nc2CCN1c1cccnc1 (stereo not drawn) | ligand displacement, radioligand | – | 1 µM | inhibition | -5% |
| CCOC(=O)C(CC)(CCCSCCOCCN)NC(=O)c1ccc(C2CC2)c(Cc2ccc(F)cc2)n1 (stereo not drawn) | cAMP, agonist | – | – | Emax | 52% |
| COc1ccc(S(=O)(=O)N2CCc3ccccc3C2)cc1N1CCN(C(=O)c2ccc(F)cc2C(F)(F)F)CC1 | ligand displacement, radioligand | – | 1 µM | inhibition | 19.4% |
| COCC(=O)N1CCc2cc(-c3csc(NC(=O)c4cc(OC)cc(OC)c4)n3)ccc21 | cell-free assay | – | 10 µM | inhibition | 8% |
